{"data": "Assay results collected from several papers", "note": "Parts stem from different laboratories: compare values within a part only. Substitutions count along the parent as printed.", "chain of UniProt P61075 (whole entry, looked up)": "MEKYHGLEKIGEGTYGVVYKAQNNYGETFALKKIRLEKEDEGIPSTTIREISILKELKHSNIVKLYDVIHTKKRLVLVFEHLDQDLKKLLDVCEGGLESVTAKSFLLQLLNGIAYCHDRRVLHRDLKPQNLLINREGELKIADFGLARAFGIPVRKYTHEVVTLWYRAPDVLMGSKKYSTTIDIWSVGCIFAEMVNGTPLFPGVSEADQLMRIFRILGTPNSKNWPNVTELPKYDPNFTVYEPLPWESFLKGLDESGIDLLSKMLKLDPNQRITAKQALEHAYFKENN"}
{"data": "Block 1", "target": "CCNF, cyclin fold, Cln2 fusion (human)", "method": "yeast growth competition, sequencing", "matrix": "yeast", "notes": "strong parent motif", "baseline": "not given", "direction": "higher = stronger binding", "starting sequence": "viral docking peptide; CKVKRKLFGSENI"}
{"Change": "G9A", "normalised enrichment score": 6.98}
{"Change": "K4A", "normalised enrichment score": 7.81}
{"Change": "V3A", "normalised enrichment score": 7.21}
{"Change": "K6A", "normalised enrichment score": 7.86}
{"Change": "R5K F8L", "normalised enrichment score": 1.22}
{"Change": "N12A", "normalised enrichment score": 7.32}
{"Change": "F8L", "normalised enrichment score": 1.85}
{"Change": "I13A", "normalised enrichment score": 8.11}
{"data": "Block 2", "target": "HLA class I histocompatibility antigen, A alpha chain, allele A*26:03 (Homo sapiens, UniProt P04439)", "observed": "peptide-MHC binding", "molecule type": "peptide", "tested at": "concentration not given"}
{"Molecule": "KGHLPLLDK", "binding": "inactive"}
{"Molecule": "TLYCVHQEI", "binding": "inactive"}
{"Molecule": "TMLYNKMEF", "binding": "inactive"}
{"Molecule": "RWRVYLRRK", "binding": "inactive"}
{"Molecule": "LTFLHTLYK", "binding": "inactive"}
{"Molecule": "ALYLLDGLR", "binding": "inactive"}
{"Molecule": "FQKDAKVLF", "binding": "inactive"}
{"Molecule": "THYSGNIVH", "binding": "inactive"}
{"data": "Single results of other studies"}
{"SMILES": "C/C=C1\\NC(=O)[C@H]2CSSCC/C=C/[C@H](CC(=O)N[C@H](C(C)C)C(=O)N2)OC(=O)[C@H](C(C)C)NC1=O", "tested on": "Vesicular stomatitis virus", "test": "pseudovirus infection", "setting": "concentration not given, VSV-G control pseudotype", "scale": "baseline: vehicle", "quantity": "GFP-positive cells", "value": "19.4%"}
{"SMILES": "CCCCN(CCCC)C(=O)CN1C[C@@H](c2cc(OC)c3c(c2)OCO3)[C@H](C(=O)O)[C@H]1CC(C)(C)CCC", "tested on": "CRK2 (Plasmodium falciparum, UniProt P61075)", "test": "cell-free assay, competition with immobilised ligand", "setting": "1 µM", "quantity": "remaining binding", "value": "95.9%"}
{"note": "Some of these lines once more (block 1):"}
{"Change": "K6A", "normalised enrichment score": 7.86}
